Experimental data collected from several papers.
Numbered parts are unrelated; each lists some results of a single study. Positions count from the first letter of the parent shown.

Series 1 — technique: DHFR PCA, deep sequencing; medium: yeast; with: (+)-ABA 58 µM; relative to: wild-type fitted maximum; reading: higher = stronger binding
Target: ABI1, truncated, D143A, DHFR fusion (Arabidopsis thaliana)
Notes: methotrexate growth selection, single substitutions
Starting sequence: PYL1, truncated, DHFR fusion (Arabidopsis thaliana); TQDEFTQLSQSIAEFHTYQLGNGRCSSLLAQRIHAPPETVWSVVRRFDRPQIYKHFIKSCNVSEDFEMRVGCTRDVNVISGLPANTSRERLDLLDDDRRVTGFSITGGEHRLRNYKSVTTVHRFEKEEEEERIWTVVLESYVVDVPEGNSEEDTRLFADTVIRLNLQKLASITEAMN
For `M176S`, “relative binding score” read 82.4%.
`R113D`: “relative binding score” 64.2%.
`V145L` — result for “relative binding score”: 65%.
`S63K`: “relative binding score” 85.6%.
`N61R`: “relative binding score” 90.4%.
Under “relative binding score”, `V44T` is recorded as 19%.
`K54W`: “relative binding score” 15.5%.
`Y53D`: “relative binding score” -21.1%.
`N77C` — result for “relative binding score”: 91.7%.
`E131H` — result for “relative binding score”: 94.8%.
`R111C` — result for “relative binding score”: 43.2%.
`K116V` — result for “relative binding score”: 38.2%.
Under “relative binding score”, `T120M` is recorded as 4.38%.

Series 2 — target: CCNB1, cyclin fold, Cln2 fusion (human); technique: yeast growth competition, sequencing; medium: yeast; notes: weak parent motif; relative to: not given; reading: higher = stronger binding
Starting sequence: CDKN1B docking peptide (human); PSACRNLFGPVDH
For `D12C`, “normalised enrichment score” read 0.515.
Under “normalised enrichment score”, `A3N` is recorded as 0.725.
`H13S` — result for “normalised enrichment score”: 0.259.
`F8I`: “normalised enrichment score” 0.522.
For `V11L`, “normalised enrichment score” read 0.836.
For `C4F`, “normalised enrichment score” read 0.163.
`H13T` — result for “normalised enrichment score”: 0.427.
Under “normalised enrichment score”, `D12R` is recorded as 0.453.
Under “normalised enrichment score”, `V11I` is recorded as 0.783.
Under “normalised enrichment score”, `P10Y` is recorded as 0.919.
For `R5T`, “normalised enrichment score” read 0.235.
Under “normalised enrichment score”, `L7F` is recorded as 0.593.
`L7K`: “normalised enrichment score” 0.0415.
For `C4I`, “normalised enrichment score” read 0.743.
`P1H`: “normalised enrichment score” 0.748.
For `R5H`, “normalised enrichment score” read 0.312.
Under “normalised enrichment score”, `N6H` is recorded as -0.00507.

Series 3 — technique: RNA Bind-n-Seq; form: RNA; medium: in vitro; concentration: 20 nM; notes: 6-mer, flanks averaged, single round; with: 150 mM LiCl; relative to: input library; reading: higher = stronger binding
Target: TAR DNA-binding protein 43, full length, His tag (TARDBP, Homo sapiens, UniProt Q13148, residues 1-414)
`CCUCGU`: “6-mer enrichment (R)” 0.899.
`CAGAAC`: “6-mer enrichment (R)” 0.848.
For `UUCCUU`, “6-mer enrichment (R)” read 1.02.
For `GCUCCC`, “6-mer enrichment (R)” read 1.11.
`GAGUAU`: “6-mer enrichment (R)” 1.08.
For `CAUGAC`, “6-mer enrichment (R)” read 0.838.
`UAUUCU` — result for “6-mer enrichment (R)”: 0.979.
`CCGUGG`: “6-mer enrichment (R)” 1.01.
`GCAUCC`: “6-mer enrichment (R)” 0.895.
Under “6-mer enrichment (R)”, `CCACUA` is recorded as 0.908.
`CAAUGC` — result for “6-mer enrichment (R)”: 0.865.
`GAGAUG` — result for “6-mer enrichment (R)”: 1.09.
`GCAACG` — result for “6-mer enrichment (R)”: 0.878.

Mixed results
`PhoQ, residues 284 288 289 292 302 303 ALASRC` has a fold induction of 1.24 (PhoP, residues 12 14 15 18 19 TPWLV (Escherichia coli, UniProt P23836); Sort-seq, item: YFP reporter; E. coli; PhoQ-PhoP variant library, with: 10 µM Mg2+; relative to: high Mg2+ state, higher = stronger signaling).

Excerpt of the above (series 2):
`H13T` — result for “normalised enrichment score”: 0.427.
For `D12C`, “normalised enrichment score” read 0.515.
`P1H`: “normalised enrichment score” 0.748.
Under “normalised enrichment score”, `P10Y` is recorded as 0.919.
For `R5H`, “normalised enrichment score” read 0.312.
`L7K`: “normalised enrichment score” 0.0415.
For `C4F`, “normalised enrichment score” read 0.163.
